Literature values, collected from citations in different studies.
Compare with care: the assays were run in different laboratories. Numbers after ± are the reported error.

N#CC[C@H](C1CCCC1)n1cc(-c2ncnc3[nH]ccc23)cn1 — Cmax (human, plasma; dose not given): 1510 nM
CCc1ccc(CCOc2ccc(CC3SC(=O)NC3=O)cc2)nc1 (stereo not shown) — Cmax (human, plasma; oral, 45 mg single dose): 4500 nM
C#Cc1cccc(Nc2ncnc3cc(OCCOC)c(OCCOC)cc23)c1 — Cmax (human; oral, 150 mg once daily, day 1): 872 ± 399 ng/mL
C[C@@H](Oc1cc(-c2cnn(C3CCNCC3)c2)cnc1N)c1c(Cl)ccc(F)c1Cl — Cmax (human, plasma; concentration not given, total concentration): 220 nM
CC(C)(C)c1ccc(C(O)CCCN2CCC(C(O)(c3ccccc3)c3ccccc3)CC2)cc1 (stereo not shown) — Cmax (human, plasma; concentration not given, highest clinical total): 120 nM
COc1cccc(CCc2ccccc2OCC(CN(C)C)OC(=O)CCC(=O)O)c1 (racemic) — Cmax (human; oral, 400 mg single dose as hydrochloride, geometric mean): 1820 ng/mL
O=C(O)Cc1ccccc1Nc1c(Cl)cccc1Cl — Cmax (human, plasma; oral, 50 mg): 4000 nM
CCCCC[C@H](O)/C=C/[C@@H]1[C@H]2C/C(=C/CCCC(=O)O)O[C@H]2C[C@H]1O — Cmax (human, plasma; concentration not given, total plasma concentration): 0.99 nM
O=C(/C=C/c1cccc(S(=O)(=O)Nc2ccccc2)c1)NO — Cmax (human, plasma; intravenous infusion, 600 to 1400 mg/m2, 30 min infusion): 88100 to 183000 nM
COc1c2occc2cc2ccc(=O)oc12 — Cmax (human, plasma; concentration not given, total concentration): 1500 nM
Cc1ccc(/C=C2/C(=O)C3(C)CCC2C3(C)C)cc1 (stereo not shown) — Cmax (human, female, plasma; dermal, 22 mg/kg, sunscreen 4% compound; geometric mean): 25.5 ng/mL
O=C1Cc2cc(CCN3CCN(c4nsc5ccccc45)CC3)c(Cl)cc2N1 — Cmax (human, plasma; concentration not given, highest clinical total): 228 nM
C[C@@H]1C[C@H]2[C@@H]3CCC4=CC(=O)C=C[C@]4(C)[C@@]3(F)[C@@H](O)C[C@]2(C)[C@@]1(O)C(=O)CO — Cmax (human, plasma; concentration not given, total concentration): 160 nM
C[C@H]1Oc2cc(cnc2N)-c2c(nn(C)c2C#N)CN(C)C(=O)c2ccc(F)cc21 — Cmax (human patients, plasma; dose not given): 1470 nM
COc1cc(CCC(=O)O)ccc1O — Cmax (healthy human, plasma; oral, 412 µmol chlorogenic acids in coffee, 200 mL coffee): 385 nM
COc1ccc2[nH]c([S+]([O-])Cc3ncc(C)c(OC)c3C)nc2c1 (stereo not shown) — Cmax (human, plasma; highest proposed clinical dose): 4150 nM
CN1CCN(c2ccc3nc(-c4c(N)c5c(F)cccc5[nH]c4=O)[nH]c3c2)CC1 — Cmax (human; oral, 500 mg once daily, day 1): 223 ± 128 ng/mL
CC(=O)Oc1cccc2c1C(=O)c1c(OC(C)=O)cc(C(=O)O)cc1C2=O — Cmax (human, plasma; concentration not given, total concentration): 13000 nM
Cc1c(C)c2c(c(C)c1O)CCC(C)(COc1ccc(CC3SC(=O)NC3=O)cc1)O2 (stereo not shown) — Cmax (human, plasma; oral, 400 mg single dose): 3000 nM
O=C(CCCN1CCC(O)(c2ccc(Cl)cc2)CC1)c1ccc(F)cc1 — Cmax (human, plasma; concentration not given, highest clinical total): 106 nM
O=C1CC(c2ccc(O)cc2)Oc2cc(O)cc(O)c21 (stereo not shown) — Cmax (item: total incl. conjugates; human, plasma; oral, 135 mg): 2000 ± 770 ng/mL
CC(C)NCC(O)COc1cccc2ccccc12 (stereo not shown) — Cmax (human, plasma; concentration not given, highest clinical total): 220 nM
COc1cccc(CCc2ccccc2OC[C@H](O)CN(C)C)c1 (racemic) — Cmax (human; oral, 100 mg sarpogrelate hydrochloride, single dose, geometric mean): 47.6 ng/mL
CCOc1ccc(Cc2cc([C@@H]3O[C@H](SC)[C@@H](O)[C@H](O)[C@H]3O)ccc2Cl)cc1 — Cmax (healthy human subjects; oral, up to 500 mg once daily, multiple doses, day 7, liquid formulation): 165 ng/mL
NC(=O)N1c2ccccc2CC(=O)c2ccccc21 — Cmax (human, plasma; 600 mg twice daily): 8440 nM
C=CC[C@@H]1/C=C(\C)C[C@H](C)C[C@H](OC)[C@H]2O[C@@](O)(C(=O)C(=O)N3CCCC[C@H]3C(=O)O[C@H](/C(C)=C/[C@@H]3CC[C@@H](O)[C@H](OC)C3)[C@H](C)[C@@H](O)CC1=O)[C@H](C)C[C@@H]2OC — Cmax (human, plasma; concentration not given, total concentration): 83 nM
COc1cc(Nc2ncc3c(n2)-c2ccc(Cl)cc2C(c2c(F)cccc2OC)=NC3)ccc1C(=O)O — Cmax (human adults; oral, 50 mg enteric-coated tablet): 2900 nM
C[C@@H]1CN(c2c(F)c(N)c3c(=O)c(C(=O)O)cn(C4CC4)c3c2F)C[C@H](C)N1 — Cmax (human, plasma; concentration not given, highest clinical total): 9680 nM
CC1(C)C=Cc2c(ccc3c2OC[C@@H](c2ccc(O)cc2O)C3)O1 — Cmax (human, plasma; oral, single dose, licorice supplement 1% compound): ≤ 8 nM
CCOC(=O)C1=C[C@@H](OC(CC)CC)[C@H](NC(C)=O)[C@@H](N)C1 — Cmax (human adult, plasma; 75 mg twice daily, 5 days, steady state): 186 nM
COc1cc2nc(N(C)CCCNC(=O)C3CCCO3)nc(N)c2cc1OC (stereo not shown) — Cmax (human, plasma; concentration not given, total concentration): 32 nM
O=C(Nc1nc2cccc(-c3ccc(CN4CCS(=O)(=O)CC4)cc3)n2n1)C1CC1 — Cmax (human, rheumatoid arthritis patients, plasma; 200 mg once daily, steady state): 5100 nM
C/C=C1\NC(=O)[C@H]2CSSCC/C=C/[C@H](CC(=O)N[C@H](C(C)C)C(=O)N2)OC(=O)[C@H](C(C)C)NC1=O — Cmax (human, plasma; intravenous infusion, 1 to 24.9 mg/m2, 4 h infusion): 70 to 1020 nM
CC(C)C[C@H](NC(=O)[C@H](Cc1ccccc1)NC(=O)c1cnccn1)B(O)O — Cmax (human, plasma; concentration not given, total concentration): 1300 nM
CC[C@H](C)C(=O)O[C@H]1C[C@@H](C)C=C2C=C[C@H](C)[C@H](CC[C@@H]3C[C@@H](O)CC(=O)O3)[C@H]21 — Cmax (human, plasma; 40 mg daily): ~50 nM
Cn1cncc1[C@@](N)(c1ccc(Cl)cc1)c1ccc2c(c1)c(-c1cccc(Cl)c1)cc(=O)n2C — Cmax (human patients without enzyme-inducing antiepileptics; oral, 300 mg twice daily, day 1): 634 ± 374 ng/mL
Cc1cc(-c2ccc(C(=O)[C@@H]3CCCC[C@H]3C(=O)Nc3cnn4c3C(=O)NCC4)cc2)n[nH]1 — Cmax (human, non-Japanese; oral, 180 mg multiple doses, day 10, geometric mean): 1240 nM

Repeated from above:
COc1ccc2[nH]c([S+]([O-])Cc3ncc(C)c(OC)c3C)nc2c1 (stereo not shown) — Cmax (human, plasma; highest proposed clinical dose): 4150 nM
COc1cccc(CCc2ccccc2OCC(CN(C)C)OC(=O)CCC(=O)O)c1 (racemic) — Cmax (human; oral, 400 mg single dose as hydrochloride, geometric mean): 1820 ng/mL
